Measurements from different studies.
Lines come from different studies, so protocols differ. ± gives the spread as reported.
B1: colicin E1 fragment 1–100; chain METAVAYYKDGVPYDDKGQVIITLLNGTPDGSGSGGGGGKGGSKSESSAAIHATAKWSTAQLKKTQAEQAARAKAAAEAQAKAKANRDALTQRLKDIVNE

Molecule	target or system	assay	system	conditions	scale	quantity	result
CCN1C(=CC=CC=CC2=[N+](CCCCCC(=O)NCCCC[C@H](NC(=O)CN3CCN(CC(=O)O)CCN(CC(=O)O)CCN(CC(=O)O)CC3)C(=O)NCC(=O)NCC(=O)N[C@@H](Cc3ccc(O)cc3)C(=O)NCC(=O)N[C@H]3CSSC[C@@H]4NC(=O)CNC(=O)[C@H](C)NC(=O)[C@H](CC(C)C)NC(=O)[C@@H]5CSSC[C@@H](C(=O)NCC(N)=O)NC(=O)[C@H](Cc6ccccc6)NC(=O)CNC(=O)[C@H](CC(N)=O)NC(=O)[C@@H]6CCCN6C(=O)CNC(=O)[C@H](CSSC[C@H](NC(=O)[C@H](CO)NC(=O)[C@H]([C@@H](C)O)NC(=O)[C@@H]6CCCN6C(=O)[C@H](C)NC(=O)[C@H](Cc6c[nH]c7ccccc67)NC(=O)[C@H](CC(=O)O)NC(=O)CNC(=O)[C@H](CCCNC(=N)N)NC(=O)CNC(=O)[C@H](CCC(N)=O)NC(=O)[C@@H]6CCCN6C3=O)C(=O)N[C@@H](CO)C(=O)N[C@@H](CCC(N)=O)C(=O)N[C@@H](CC(=O)O)C(=O)N[C@@H](CO)C(=O)N[C@@H](CC(=O)O)C(=O)N5)NC(=O)[C@H](C(C)C)NC4=O)c3ccc4c(S(=O)(=O)[O-])cc(S(=O)(=O)O)cc4c3C2(C)C)C(C)(C)c2c1ccc1c(S(=O)(=O)O)cc(S(=O)(=O)O)cc21 (single isomer, unassigned) [copper-64 labelled]	–	microPET	female athymic nude mouse, U-87 MG xenograft, tumour	intravenous, 100 µCi, 1 h	–	tumour uptake	4.27 ± 0.46 %ID/g
CSCC[C@H](NC(=O)[C@H](CC(C)C)NC(=O)[C@H](Cc1cnc[nH]1)NC(=O)CNC(=O)[C@@H](NC(=O)[C@H](C)NC(=O)[C@H](Cc1c[nH]c2ccccc12)NC(=O)[C@H](CCC(N)=O)NC(=O)CCCCCCCNC(=O)CN1CCN(CC(=O)O)CCN(CC(=O)O)CCN(CC(=O)O)CC1)C(C)C)C(N)=O	–	–	ICR SCID mouse (PC-3 tumour), urine and bladder contents	intravenous, 185 kBq, 4 h	–	excreted dose	78.3 ± 4.22%
CNC(C)Cc1ccc2c(c1)OCO2 (racemic)	–	Drug Effects Questionnaire, measured: Like Drug	human	oral, 1.5 mg/kg, mean over session, unit not given	reference: pre-dose baseline	subjective drug effect rating	47.8
CC(=O)N(O)CCCCCNC(=O)CCC(=O)N(O)CCCCCNC(=O)CCC(=O)N(O)CCCCCNC(=S)Nc1ccc(NC(=S)NCCOCCOCCOCCOCCC(=O)N[C@@H](CCC(=O)NCCOCCOCCOCCOCCC(=O)NCCCC[C@@H]2NC(=O)[C@@H](Cc3ccccc3)NC(=O)[C@H](CC(=O)O)NC(=O)CNC(=O)[C@H](CCCNC(=N)N)NC2=O)C(=O)NCCOCCOCCOCCOCCC(=O)NCCCC[C@@H]2NC(=O)[C@@H](Cc3ccccc3)NC(=O)[C@H](CC(=O)O)NC(=O)CNC(=O)[C@H](CCCNC(=N)N)NC2=O)cc1 [zirconium-89 labelled]	–	–	athymic nude mice female tumour-bearing, kidneys	intravenous, dose not given, 4 h, added: unlabelled c(RGDfK) 300 µg	–	tissue uptake	16.7 ± 2.74 %ID/g
melittin	–	CD titration	POPC 50% POPG 50% vesicles	pH 7.0, 60 °C	–	free energy of partitioning	-8.01 kcal/mol
COc1cccc2c1C(=O)c1c(O)c3c(c(O)c1C2=O)C[C@@](O)(C(=O)CO)C[C@@H]3O[C@H]1C[C@H](NC(=O)[C@@H]2CCCN2C(=O)CNC(=O)[C@H](CC(C)C)NC(=O)[C@H](C)NC(=O)CP(=O)(O)O)[C@H](O)[C@H](C)O1	–	–	mouse, E0771 tumour-bearing, liver	intravenous, 92 µmol/kg	–	AUC	152 µM·h
B1 (colicin E1 fragment 1–100)	–	far-UV CD	peptide, 50 mM sodium phosphate	–	–	helical content	25 ± 3%
CC(C)[C@H](NC(=O)[C@@H](NC(=O)CCOCCOCCNC(=O)CCCc1cn(CC(O)CN2CCN(CC(=O)O)CCN(CC(=O)O)CCN(CC(=O)O)CC2)nn1)[C@@H](C)O)C(=O)N[C@@H](CCCNC(=N)N)C(=O)N[C@H](C(=O)N[C@@H](CO)C(=O)N[C@@H](C)C(=O)N[C@@H](CC(=O)O)C(=O)O)[C@@H](C)O (stereo partly drawn)	–	quantitative T1 mapping	athymic nude mouse, male, PC-3 xenograft, tumour	concentration not given, 30 min post-injection	–	tumour concentration	46.7 ± 6.2 µM
N=C(N)NCCC[C@@H]1NC(=O)[C@H](CCCCNC(=O)CNC(=O)CNC(=O)CNC(=O)CC[C@H](NC(=O)CCOCCOCCOCCOCCNC(=O)c2ccc(NN)nc2)C(=O)NCC(=O)NCC(=O)NCC(=O)NCCCC[C@@H]2NC(=O)[C@@H](Cc3ccccc3)NC(=O)[C@H](CC(=O)O)NC(=O)CNC(=O)[C@H](CCCNC(=N)N)NC2=O)NC(=O)[C@@H](Cc2ccccc2)NC(=O)[C@H](CC(=O)O)NC(=O)CNC1=O [technetium-99m labelled]	–	γ-counting	female athymic nude mice, U-87 MG xenograft, heart	intravenous, 0.5 h	–	tissue uptake	1.79 ± 0.11 %ID/g
COc1cccc2c1C(=O)c1c(O)c3c(c(O)c1C2=O)C[C@@](O)(C(=O)CO)C[C@@H]3O[C@H]1C[C@H](NC(=O)[C@H](CC(C)C)NC(=O)[C@H](C)NC(=O)[C@H](CC(C)C)NC(=O)CCNC(=O)CCC(=O)O)[C@H](O)[C@H](C)O1	–	–	mouse, E0771 tumour-bearing, kidney	intravenous, 92 µmol/kg	–	AUC	771 µM·h
C[C@H]1CNCCc2ccc(Cl)cc21	–	–	Sprague-Dawley rat, male, plasma	subcutaneous, 1 mg/kg, 15 min	–	plasma concentration	34.4 ± 3.19 ng/mL
CP(=O)(O)CCC(N)C(=O)O (stereo not drawn)	Euphorbia heterophylla	–	–	125 g/ha, 13 days, EPHHL, post-emergence spray	reference: untreated (0%), complete kill (100%)	herbicidal activity	70%
N=C(N)NCCC[C@@H]1NC(=O)[C@H](CCCCNC(=O)[C@H](CC(=O)O)NC(=O)[C@H](CC(=O)O)NC(=O)[C@H](CC(=O)O)NC(=O)CC[C@H](NC(=O)CCOCCOCCOCCOCCNC(=O)c2ccc(NN)nc2)C(=O)N[C@@H](CC(=O)O)C(=O)N[C@@H](CC(=O)O)C(=O)N[C@@H](CC(=O)O)C(=O)NCCCC[C@@H]2NC(=O)[C@@H](Cc3ccccc3)NC(=O)[C@H](CC(=O)O)NC(=O)CNC(=O)[C@H](CCCNC(=N)N)NC2=O)NC(=O)[C@@H](Cc2ccccc2)NC(=O)[C@H](CC(=O)O)NC(=O)CNC1=O [technetium-99m labelled]	–	γ-counting	female athymic nude mice, U-87 MG xenograft, brain	intravenous, 2 h	–	tissue uptake	0.11 ± 0.01 %ID/g
CC[C@H](C)[C@H](NC(=O)[C@H](Cc1c[nH]cn1)NC(=O)[C@@H]1CSSC[C@H](NC(=O)[C@H](Cc2c[nH]cn2)NC(=O)[C@H](Cc2ccccc2)NC(=O)CCN(CCN)CCN)C(=O)N2C[C@H](O)C[C@H]2C(=O)N[C@@H](Cc2ccc(O)c(Cl)c2)C(=O)N[C@@H](CC(=O)O)C(=O)N[C@@H](CC(C)C)C(=O)N1)C(=O)N[C@@H](CC(C)C)C(=O)NCc1ccc(CNC(=O)CCN(CCN)CCN)cc1 [technetium-99m labelled]	–	biodistribution	Sprague-Dawley rat, male, crush model, liver	120 min	–	liver uptake	3.2 %ID/g
CN[C@@](C)(C[18F])C(=O)O	SK-OV-3 tumour model	–	host not given, pancreas	30 min, tumour-bearing	–	tracer uptake	30 %ID/g
Cc1ccccc1NC(=O)Nc1ccc(CC(=O)N[C@@H](CCCCNC(=O)/C=C/c2cccnc2)C(=O)N[C@@H](CCCC(=O)O)C(=O)NC2(C(=O)NCCOCCOCCOCCOCC(=O)N[C@@H](CCCCNC(=S)Nc3ccc(C[C@H]4CN(CC(=O)O)CCN(CC(=O)O)CCN4CC(=O)O)cc3)C(N)=O)CCCCC2)cc1 [fluorine-18 labelled]	–	–	female C57BL/6 mice, B16-F10 tumour, liver	intravenous, 1 h	–	tissue uptake	20.1 ± 2.6 %ID/g
c1ccc(CCN2CCCCC2)cc1	L-type calcium channel dihydropyridine site, rat	binding	rat cerebral cortex	added: [3H]nitrendipine 0.2 nM	–	Ki	> 10 µM
[123I]c1cncc(OC[C@@H]2CCN2)c1	–	SPECT	human, frontal lobe	intravenous bolus plus infusion, 7.8 mCi	reference: tissue over plasma	tissue/plasma ratio	16.2

For quick reference, copied from above:
Molecule	target or system	assay	system	conditions	scale	quantity	result
COc1cccc2c1C(=O)c1c(O)c3c(c(O)c1C2=O)C[C@@](O)(C(=O)CO)C[C@@H]3O[C@H]1C[C@H](NC(=O)[C@@H]2CCCN2C(=O)CNC(=O)[C@H](CC(C)C)NC(=O)[C@H](C)NC(=O)CP(=O)(O)O)[C@H](O)[C@H](C)O1	–	–	mouse, E0771 tumour-bearing, liver	intravenous, 92 µmol/kg	–	AUC	152 µM·h
